Earlier results as cited in several papers.
Compare with care: the assays were run in different laboratories. ± gives the spread as reported.

For `CCC(C)n1ncn(-c2ccc(N3CCN(c4ccc(OCC5COC(Cn6cncn6)(c6ccc(Cl)cc6Cl)O5)cc4)CC3)cc2)c1=O` (stereo not drawn), the logP was 5.66 (calculated; octanol/water).
The IC50 of `N#CN1CC[C@H](C(=O)Nc2nc3c(s2)CN(C(=O)CN=[N+]=[N-])CC3)C1` is reported as 320 nM (UCHL1; biochemical activity).
`O=C(c1ccc(Cl)cc1)N(Cc1ccccc1)C1CCCCC1` — result for cytokine release: “decreased” (BV-2; item: IL-1β, IL-6, TNF-α; concentration not given, together with: LPS).
With `COc1cc(C(=O)O)ncc1C#Cc1ccccc1NS(=O)(=O)c1cccc2c(N(C)C)ccnc12` the IC50 was 506 nM (SLC16A3 (human); cellular activity).
The Cmax of `C=CC(=O)N1CCC([C@@H]2CCNc3c(C(N)=O)c(-c4ccc(Oc5ccccc5)cc4)nn32)CC1` is reported as 79 ± 30 ng/mL (human patients; oral, 40 mg once daily, day 8).
With `CN(C(=O)c1ccccc1)c1cc(N(C)c2ccc3c(c2)CCc2ccc(C(=O)NCCN4CCOCC4)cc2C3=O)ccc1F` the IC50 was 11300 nM (MAPK14; cell-based).
`Cn1c(=O)oc2ccc(-c3ccc(C[C@@H](C#N)NC(=O)[C@@H]4CNCCCO4)cc3)cc21`: “unchanged renal excretion” about 20% (human, urine; dose not given, steady state; reference: dose).
Under activity, `C[C@]12CCC(=O)C=C1CC[C@@H]1[C@@H]2CC[C@@]2(C)[C@H]1CC[C@]2(O)C(=O)CO` is recorded as “inactive” (Cryptosporidium parvum; high-throughput screen; concentration not given).
`CN(C)C(=O)Cn1cc(-c2nc([C@@](C)(c3ccc(-c4cnc(N)nc4)cc3)C3CC3)no2)cn1` has an IC50 of 1.7 nM (ALOX5AP; biochemical activity).

Repeated from above:
`O=C(c1ccc(Cl)cc1)N(Cc1ccccc1)C1CCCCC1` — result for cytokine release: “decreased” (BV-2; item: IL-1β, IL-6, TNF-α; concentration not given, together with: LPS).
